Measured values from different studies.
Each line is one published result; not all experiments were run side by side. ± gives the spread as reported.

Cc1ccc(C(=O)NNC(=O)CSc2nc3ccccc3c(=O)[nH]2)cc1
IC50 (SARS-CoV-2; viral cytopathic effect; Vero E6, NRC-03-nhCoV): 127 µM

CCN1CCCC1CNC(=O)c1cc(S(=O)(=O)CC)c(N)cc1OC (centres unmarked)
IC50 (SARS-CoV-2; viral replication; A549 expressing ACE2; inactive set pIC50 4): > 10 µM

Cc1ccc(N)cc1C(=O)N[C@H](C)c1cccc2ccccc12
IC50 (SARS-CoV-2; viral replication; USA/WA1/2020; 48 h): > 20 µM

COc1cc2c(cc1OC)C(=O)C(CC1CCN(Cc3ccccc3)CC1)C2 (centres unmarked)
IC50 (SARS-CoV-2; viral replication, anti-nucleoprotein immunostaining; Vero E6): > 10 µM

Cc1ncc(CO)c(CO)c1O
IC50 (SARS-CoV-2; viral replication; Huh-7): > 2 µM

CCOCOC[C@H](C[C@H](C)C(=O)NO)NC(=O)c1ccc(Oc2ccccc2)cc1
IC50 (SARS-CoV-2; cell-cell fusion; HeLa-ACE2, Delta spike): > 10 µM

Oc1c(Cl)cc(Cl)c2cccnc12
IC50 (SARS-CoV-2; viral replication; Huh-7): > 2 µM

Cc1cn2nc([C@@H]3CCCCN3C(=O)c3cc(Cl)ccc3NS(C)(=O)=O)cc2nc1N1CC[C@H](N)C1
IC50 (SARS-CoV-2; viral replication; Vero E6): 7.7 µM

CCC(CC)COC(=O)[C@H](C)N[P@](=O)(OC[C@H]1O[C@@](C#N)(c2ccc3c(N)ncnn23)[C@H](O)[C@@H]1O)Oc1ccccc1
IC50 (SARS-CoV-2; cytopathic effect; Vero C1008): 7.39 µM

CC1=C(C(=O)OC2CCCCC2)C(c2ccc([N+](=O)[O-])cc2)C2=C(CC(C)(C)CC2=O)N1 (centres unmarked)
IC50 (SARS-CoV-2; viral cytopathic effect; Vero E6; 3 days): 0.0151 µM

CCOc1ccc2cc(C(=O)Nc3nc4ccccc4[nH]3)[nH]c2c1
IC50 (SARS-CoV-2; cell-cell fusion; HeLa-ACE2, Delta spike): > 10 µM

Cc1nccn1CC1CCc2c(c3ccccc3n2C)C1=O (centres unmarked)
IC50 (SARS-CoV-2; viral replication, RT-qPCR; A549 expressing ACE2): > 10 µM

COc1cc2nc(N(C)CCCNC(=O)C3CCCO3)nc(N)c2cc1OC (centres unmarked)
IC50 (SARS-CoV-2; viral replication; Huh-7): > 2 µM

CC(C)(C)[C@@H]1NC(=O)O[C@@H]2CCC[C@H]2OC/C=C/C(F)(F)c2nc3ccccc3nc2O[C@@H]2C[C@@H](C(=O)N[C@]3(C(=O)NS(=O)(=O)C4(C)CC4)C[C@H]3C(F)F)N(C2)C1=O
IC50 (SARS-CoV-2; viral replication, nucleoprotein immunofluorescence; Vero E6): > 50 µM

GTRNPANNA
frequency of responding donors (AIM; peptide, CD8+ T cells from PBMC, human donors; HLA-A*30:01 restricted, unit not given; baseline: positive over tested donors): 50

CCCCCCCCCCC(C)(C)C(=O)Nc1c(OC)cc(OC)cc1OC
IC50 (SARS-CoV-2; viral cytopathic effect; Vero E6; 3 days): 0.3 µM

C#C[C@]1(O)CC[C@H]2[C@@H]3CCc4cc(OC)ccc4[C@H]3CC[C@@]21C
IC50 (SARS-CoV-2; viral replication; Huh-7): > 2 µM

O=C(CSc1nc2c(c(=O)[nH]1)CCCC2)Nc1ccc(C(=O)O)cc1
IC50 (SARS-CoV-2; viral cytopathic effect; Vero E6, NRC-03-nhCoV): 530 µM

Cc1nccn1CC1CCc2c(c3ccccc3n2C)C1=O (centres unmarked)
IC50 (SARS-CoV-2; viral replication; Huh-7): > 2 µM

O=C(CSc1nc2ccccc2c(=O)[nH]1)NNC(=O)c1ccc([N+](=O)[O-])cc1
IC50 (SARS-CoV-2; viral cytopathic effect; Vero E6, NRC-03-nhCoV): 121 µM

OCCN1CCN(CCCN2c3ccccc3C=Cc3ccccc32)CC1
IC50 (SARS-CoV-2; viral replication, anti-nucleoprotein immunostaining; Vero E6): > 10 µM

O=C(CSc1nc2ccccc2c(=O)[nH]1)NNC(=O)c1ccccc1Br
IC50 (SARS-CoV-2; viral cytopathic effect; Vero E6, NRC-03-nhCoV): 21.4 µM

COc1ccc(CN2CCN(Cc3ccccc3)CC2)cc1
IC50 (SARS-CoV-2; viral replication, RT-qPCR; A549 expressing ACE2): > 10 µM

COc1ccc([C@@]23Oc4cc(OC)cc(OC)c4[C@@]24NC(C)=N[C@@]4(O)[C@H](C(=O)N(C)OC)[C@H]3c2ccccc2)cc1
IC50 (SARS-CoV-2; cell-based): 0.005 µM

O=C(CSc1nc2c(c(=O)[nH]1)CCCC2)NNC(=O)c1ccccc1Br
IC50 (SARS-CoV-2; viral cytopathic effect; Vero E6, NRC-03-nhCoV): 93.4 µM

O=C(Nc1ccc(OC(F)(F)F)cc1)c1sccc1NCc1ccnc2ccccc12
IC50 (SARS-CoV-2; viral replication): 2.4 µM

O=C(CSc1nc2c(c(=O)[nH]1)CCCC2)NNC(=O)c1ccccc1Cl
IC50 (SARS-CoV-2; viral cytopathic effect; Vero E6, NRC-03-nhCoV): 460 µM

C[C@]12CCC3=C4CCC(=O)C=C4CC[C@H]3[C@@H]1CC[C@@]2(O)CC#N
IC50 (SARS-CoV-2; viral replication; Huh-7): > 2 µM

CN(C)CC[C@@H](c1ccc(Cl)cc1)c1ccccn1
IC50 (SARS-CoV-2; viral replication, anti-nucleoprotein immunostaining; Vero E6): > 10 µM

O=C(CSc1nc2c(c(=O)[nH]1)CCCC2)NNC(=O)c1ccc(Cl)cc1
IC50 (SARS-CoV-2; viral cytopathic effect; Vero E6, NRC-03-nhCoV): 26.4 µM

O=C(CN1CCC(CN2Cc3ccccc3C2=O)CC1)c1ccc(F)cc1
IC50 (SARS-CoV-2; viral replication; A549 expressing ACE2; inactive set pIC50 4): > 10 µM

CCCCCCNC(=O)n1cc(F)c(=O)[nH]c1=O
IC50 (SARS-CoV-2; viral replication; Huh-7): > 2 µM

CCN(CC)C(=O)C1(c2ccccc2)CC1CN (centres unmarked)
IC50 (SARS-CoV-2; viral replication; Vero E6; inactive set pIC50 4): > 10 µM

Cc1cccc(Nc2nc(Nc3cccc(C)c3)nc(N3CCOCC3)n2)c1
IC50 (SARS-CoV-2; viral replication; Vero C1008, USA_WA1/2020; 72 h): 0.8 µM

O=C(CSc1nc2ccccc2c(=O)[nH]1)Nc1cccc(C(=O)O)c1
IC50 (SARS-CoV-2; viral cytopathic effect; Vero E6, NRC-03-nhCoV): 79.7 µM

CCCC[C@H](NC(=O)[C@@H]1[C@@H]2[C@H](CN1C(=O)[C@@H](NC(=O)NC1(CS(=O)(=O)C(C)(C)C)CCCCC1)C(C)(C)C)C2(C)C)C(=O)C(=O)NC1CC1
IC50 (SARS-CoV-2; viral replication, nucleoprotein immunofluorescence; Vero E6): 7.7 µM

Cn1cnc(Cn2c(=O)[nH]/c(=N\c3cc4cn(C)nc4cc3Cl)n(Cc3cc(F)c(F)cc3F)c2=O)n1
IC50 (SARS-CoV-2; viral replication; Vero C1008, XBB.1): 0.0949 ± 0.0094 µM

polymyxin B
IC50 (SARS-CoV-2; viral replication; Vero; 24 h): > 0.8 µg/mL

LGASQRVAGDSGFAA
responding donors (human CD4 T cells; AIM; peptide): 15%

CC(C)(C)OC(=O)N[C@H]1CCCCC/C=C\[C@@H]2C[C@@]2(C(=O)NS(=O)(=O)C2CC2)NC(=O)[C@@H]2C[C@@H](OC(=O)N3Cc4cccc(F)c4C3)CN2C1=O
IC50 (SARS-CoV-2; viral replication, nucleoprotein immunofluorescence; Vero E6): > 50 µM

CO/N=C(\C(=O)N[C@@H]1C(=O)N2C(C(=O)O)=C(COC(C)=O)CS[C@H]12)c1csc(N)n1
IC50 (SARS-CoV-2; viral replication; Huh-7): > 2 µM

A few entries again:
Cn1cnc(Cn2c(=O)[nH]/c(=N\c3cc4cn(C)nc4cc3Cl)n(Cc3cc(F)c(F)cc3F)c2=O)n1
IC50 (SARS-CoV-2; viral replication; Vero C1008, XBB.1): 0.0949 ± 0.0094 µM

polymyxin B
IC50 (SARS-CoV-2; viral replication; Vero; 24 h): > 0.8 µg/mL

LGASQRVAGDSGFAA
responding donors (human CD4 T cells; AIM; peptide): 15%

CC(C)(C)OC(=O)N[C@H]1CCCCC/C=C\[C@@H]2C[C@@]2(C(=O)NS(=O)(=O)C2CC2)NC(=O)[C@@H]2C[C@@H](OC(=O)N3Cc4cccc(F)c4C3)CN2C1=O
IC50 (SARS-CoV-2; viral replication, nucleoprotein immunofluorescence; Vero E6): > 50 µM

CO/N=C(\C(=O)N[C@@H]1C(=O)N2C(C(=O)O)=C(COC(C)=O)CS[C@H]12)c1csc(N)n1
IC50 (SARS-CoV-2; viral replication; Huh-7): > 2 µM
